Measurements from different studies.
Compare with care: the assays were run in different laboratories. Converted amounts (≈) assume the structure as drawn.
Organism: Pseudomonas aeruginosa

CCCCCCCCCC(=O)NCCCC[C@H](NC(=O)[C@H](CCCCN)NC(=O)[C@@H]1CSCC(=O)N[C@@H](CCCCN)C(=O)N[C@@H](CC(C)C)C(=O)N[C@@H](CCCCN)C(=O)NCCCC[C@@H]2NC(=O)[C@H](CCCCN)NC(=O)[C@H](CC(C)C)NC(=O)[C@H](CCCCN)NC(=O)CSC[C@H](NC(=O)[C@H](CC(C)C)NC(=O)[C@H](CC(C)C)NC(=O)[C@H](CCCCN)NC2=O)C(=O)N[C@@H](CC(C)C)C(=O)N[C@@H](CC(C)C)C(=O)N[C@@H](CC(C)C)C(=O)N1)C(N)=O — minimal biofilm inhibitory concentration (PAO1; 24 to 25 h): 128 µg/mL
ONCC1CCCCC1 — MIC50 (microbial growth; ATCC15692; 8 h): < 17 µg/mL
CC[C@H](C)[C@H](NC(=O)[C@H](CCCCN)NC(=O)[C@H](CCCCN)NC(=O)[C@H](CC(C)C)NC(=O)[C@H](CCCCN)NC(=O)[C@H](CCC(=O)O)NC(=O)[C@H](CCCCN)NC(=O)[C@@H](NC(=O)[C@H](CCCCN)NC(=O)[C@H](CC(N)=O)NC(=O)[C@H](CCCNC(=N)N)NC(=O)[C@H](Cc1ccccc1)NC(=O)[C@H](CCCCN)NC(=O)[C@H](CCCNC(=N)N)NC(=O)[C@H](CC(C)C)NC(=O)[C@H](CCCNC(=N)N)NC(=O)[C@H](CCCCN)NC(=O)[C@H](CCCNC(=N)N)NC(=O)[C@@H](N)CC(C)C)[C@@H](C)CC)C(=O)NCC(=O)N[C@@H](CCC(N)=O)C(=O)N[C@@H](CCCCN)C(=O)N[C@H](C(=O)N[C@@H](CCC(N)=O)C(=O)NCC(=O)N[C@@H](Cc1ccccc1)C(=O)N[C@H](C(=O)N1CCC[C@H]1C(=O)N[C@@H](CCCCN)C(=O)N[C@@H](CC(C)C)C(=O)O)C(C)C)[C@@H](C)CC — lethal concentration (inhibition zone method; 374, LB 0.8% agar with 154 mM NaCl; overnight, 37 °C): 4.42 µM
CCCC(=O)NCC(=O)N[C@@H](CC(C)C)C(=O)N[C@@H](CC(C)C)C(=O)N[C@@H](CCCCN)C(=O)N[C@@H](CCCNC(=N)N)C(=O)N[C@H](C(=O)N[C@@H](CCCCN)C(=O)N[C@H](C(=O)N[C@@H](CC(C)C)C(=O)N[C@@H](CC(C)C)C(=O)NCCCC[C@H](NC(=O)[C@H](CC(C)C)NC(=O)[C@H](CC(C)C)NC(=O)[C@@H](NC(=O)[C@H](CCCCN)NC(=O)[C@@H](NC(=O)[C@H](CCCNC(=N)N)NC(=O)[C@H](CCCCN)NC(=O)[C@H](CC(C)C)NC(=O)[C@H](CC(C)C)NC(=O)CNC(=O)CCC)[C@@H](C)CC)[C@@H](C)O)C(=O)NCCCC[C@H](NC(=O)[C@H](CCCCNC(=O)[C@H](CC(C)C)NC(=O)[C@H](CC(C)C)NC(=O)[C@@H](NC(=O)[C@H](CCCCN)NC(=O)[C@@H](NC(=O)[C@H](CCCNC(=N)N)NC(=O)[C@H](CCCCN)NC(=O)[C@H](CC(C)C)NC(=O)[C@H](CC(C)C)NC(=O)CNC(=O)CCC)[C@@H](C)CC)[C@@H](C)O)NC(=O)[C@H](CC(C)C)NC(=O)[C@H](CC(C)C)NC(=O)[C@@H](NC(=O)[C@H](CCCCN)NC(=O)[C@@H](NC(=O)[C@H](CCCNC(=N)N)NC(=O)[C@H](CCCCN)NC(=O)[C@H](CC(C)C)NC(=O)[C@H](CC(C)C)NC(=O)CNC(=O)CCC)[C@@H](C)CC)[C@@H](C)O)C(N)=O)[C@@H](C)O)[C@@H](C)CC — FIC index (checkerboard; ATCC 27853; added: rifampicin): 0.25
CN1CC(=O)N=C1N.C[C@H](CCC(=O)O)[C@H]1CC[C@H]2[C@@H]3[C@H](O)C[C@@H]4C[C@H](O)CC[C@]4(C)[C@H]3CC[C@]12C — antibacterial activity (TISTR357; 1 mg per disc, 18 to 24 h, 37 °C): inactive
CC[C@@H](C)[C@@H](NC(=O)[C@@H](C)NC(=O)[C@@H](CCCCN)NC(=O)[C@@H](CC(C)C)NC(=O)[C@@H](C)NC(=O)[C@H](NC(=O)[C@@H](Cc1c[nH]cn1)NC(=O)[C@@H](CC(C)C)NC(=O)[C@H](NC(=O)[C@H](NC(=O)[C@@H](CCCCN)NC(=O)[C@@H](CCCCN)NC(=O)[C@@H](C)NC(=O)[C@@H](CO)NC(=O)[C@@H](CCCCN)NC(=O)[C@@H](Cc1ccccc1)NC(=O)[C@H](NC(=O)[C@@H](CCCCN)NC(=O)[C@@H](CC(C)C)NC(=O)[C@@H](Cc1ccccc1)NC(=O)[C@@H](CO)NC(=O)[C@@H](CCCCN)NC(=O)[C@@H](Cc1c[nH]c2ccccc12)NC(=O)[C@@H](CCCCN)NC(C)=O)[C@H](C)O)[C@H](C)O)C(C)C)[C@H](C)O)C(=O)N[C@H](CO)C(=O)N[C@H](CO)C(N)=O — MIC geometric mean (six isolates): 4.1 µM (≈ 12.3 µg/mL)
CC(C)C[C@H](NC(=O)[C@H](CCCCN)NC(=O)[C@H](CCCCNC(=O)[C@H](CC(C)C)NC(=O)[C@H](CCCCN)NC(=O)[C@H](CCCCNC(=O)[C@H](CC(C)C)NC(=O)[C@H](CCCCN)NC(=O)[C@H](CCCCNC(=O)[C@H](CC(C)C)NC(=O)[C@@H](N)CCCCN)NC(=O)[C@H](CC(C)C)NC(=O)[C@@H](N)CCCCN)NC(=O)[C@H](CC(C)C)NC(=O)[C@H](CCCCN)NC(=O)[C@H](CCCCNC(=O)[C@H](CC(C)C)NC(=O)[C@@H](N)CCCCN)NC(=O)[C@H](CC(C)C)NC(=O)[C@@H](N)CCCCN)NC(=O)[C@H](CC(C)C)NC(=O)[C@H](CCCCN)NC(=O)[C@H](CCCCNC(=O)[C@H](CC(C)C)NC(=O)[C@H](CCCCN)NC(=O)[C@H](CCCCNC(=O)[C@H](CC(C)C)NC(=O)[C@@H](N)CCCCN)NC(=O)[C@H](CC(C)C)NC(=O)[C@@H](N)CCCCN)NC(=O)[C@H](CC(C)C)NC(=O)[C@H](CCCCN)NC(=O)[C@H](CCCCNC(=O)[C@H](CC(C)C)NC(=O)[C@@H](N)CCCCN)NC(=O)[C@H](CC(C)C)NC(=O)[C@@H](N)CCCCN)C(N)=O — MBIC (biofilm formation; PAO1; 24 h, 37 °C): 16 µg/mL
CC[C@H](C)[C@H](NC(=O)[C@H](CCCCN)NC(=O)[C@H](CCCCN)NC(=O)[C@H](CC(C)C)NC(=O)[C@H](CCCCN)NC(=O)[C@H](CCC(=O)O)NC(=O)[C@H](CCCCN)NC(=O)[C@@H](NC(=O)[C@H](CCCCN)NC(=O)[C@H](CC(N)=O)NC(=O)[C@H](CCCNC(=N)N)NC(=O)[C@H](Cc1ccccc1)NC(=O)[C@H](CCCCN)NC(=O)[C@H](CCCNC(=N)N)NC(=O)[C@H](CC(C)C)NC(=O)[C@H](CCCNC(=N)N)NC(=O)[C@H](CCCCN)NC(=O)[C@H](CCCNC(=N)N)NC(=O)[C@H](CC(C)C)NC(=O)[C@@H](N)CCCNC(=N)N)[C@@H](C)CC)C(=O)NCC(=O)N[C@@H](CCC(N)=O)C(=O)N[C@@H](CCCCN)C(=O)N[C@H](C(=O)N[C@@H](CCC(N)=O)C(=O)NCC(=O)N[C@@H](Cc1ccccc1)C(=O)N[C@H](C(=O)N1CCC[C@H]1C(=O)N[C@@H](CCCCN)C(=O)N[C@@H](CC(C)C)C(=O)N[C@@H](CCC(N)=O)C(=O)N1CCC[C@H]1C(=O)N[C@@H](CO)C(=O)N[C@@H](CCCCN)C(=O)N[C@@H](CCC(N)=O)C(=O)N[C@@H](CO)C(=O)O)C(C)C)[C@@H](C)CC — lethal concentration (inhibition zone method; 11092304, LB 0.8% agar with 154 mM NaCl; overnight, 37 °C): 5.23 µM
C[C@@](O)(C(F)F)[C@H](NC(=O)c1ccc(C#CC#CC2CC2)cc1)C(=O)NO — MIC50 (agar dilution; clinical isolates, susceptible and MDR/XDR): 0.25 µg/mL (≈ 0.664 µM)
CC[C@H](C)[C@H](NC(=O)[C@H](Cc1c[nH]cn1)NC(=O)[C@H](CCCCNC(=O)[C@@H](NC(=O)[C@H](CCCCN)NC(=O)CSC[C@H](NC(=O)[C@H](Cc1ccccc1)NC(=O)[C@H](CCCCNC(=O)[C@H](CC(C)C)NC(=O)[C@@H]1CCCN1C(=O)[C@H](CCCCN)NC(=O)CCS[C@@H]1O[C@H](CO)[C@H](O)[C@H](O)[C@H]1O)NC(=O)[C@H](CC(C)C)NC(=O)[C@@H]1CCCN1C(=O)[C@H](CCCCN)NC(=O)C[C@@H]1O[C@@H](C)[C@@H](O)[C@@H](O)[C@@H]1O)C(N)=O)[C@@H](C)CC)NC(=O)[C@@H](NC(=O)[C@H](CCCCN)NC(=O)CSC[C@H](NC(=O)[C@H](Cc1ccccc1)NC(=O)[C@H](CCCCNC(=O)[C@H](CC(C)C)NC(=O)[C@@H]1CCCN1C(=O)[C@H](CCCCN)NC(=O)CCS[C@@H]1O[C@H](CO)[C@H](O)[C@H](O)[C@H]1O)NC(=O)[C@H](CC(C)C)NC(=O)[C@@H]1CCCN1C(=O)[C@H](CCCCN)NC(=O)C[C@@H]1O[C@@H](C)[C@@H](O)[C@@H](O)[C@@H]1O)C(N)=O)[C@@H](C)CC)C(N)=O — MBC (PAO1; biofilm-forming conditions): > 45 µM
CC[C@H](C)[C@H](NC(=O)[C@H](CCCCN)NC(=O)[C@H](CCCCN)NC(=O)[C@H](CC(C)C)NC(=O)[C@H](CCCCN)NC(=O)[C@H](CCC(=O)O)NC(=O)[C@H](CCCCN)NC(=O)[C@@H](NC(=O)[C@H](CCCCN)NC(=O)[C@H](CC(N)=O)NC(=O)[C@H](CCCNC(=N)N)NC(=O)[C@H](Cc1ccccc1)NC(=O)[C@H](CCCCN)NC(=O)[C@H](CCCNC(=N)N)NC(=O)[C@H](CC(C)C)NC(=O)[C@H](CCCNC(=N)N)NC(=O)[C@H](CCCCN)NC(=O)[C@H](CCCNC(=N)N)NC(=O)[C@H](CC(C)C)NC(=O)[C@@H](N)CC(C)C)[C@@H](C)CC)C(=O)NCC(=O)N[C@@H](CCC(N)=O)C(=O)N[C@@H](CCCCN)C(=O)N[C@H](C(=O)N[C@@H](CCC(N)=O)C(=O)NCC(=O)N[C@@H](Cc1ccccc1)C(=O)N[C@H](C(=O)N1CCC[C@H]1C(=O)N[C@@H](CCCCN)C(=O)N[C@@H](CC(C)C)C(=O)N[C@H](C(=O)N1CCC[C@H]1C(=O)N[C@@H](CCCNC(=N)N)C(=O)N[C@H](C(=O)N[C@@H](CCC(=O)O)C(=O)N[C@@H](CO)C(=O)O)[C@@H](C)O)C(C)C)C(C)C)[C@@H](C)CC — lethal concentration (inhibition zone method; 14, LB 0.8% agar with 154 mM NaCl; overnight, 37 °C): 3.22 µM
CC[C@H](C)[C@H](NC(=O)[C@H](Cc1c[nH]cn1)NC(=O)[C@H](CCCCNC(=O)[C@@H](NC(=O)[C@H](CCCCN)NC(=O)[C@H](Cc1ccccc1)NC(=O)[C@H](CCCCNC(=O)[C@H](CC(C)C)NC(=O)[C@@H]1CCCN1C(=O)[C@H](CCCCN)NC(=O)C[C@@H]1O[C@@H](C)[C@@H](O)[C@@H](O)[C@@H]1O)NC(=O)[C@H](CC(C)C)NC(=O)[C@@H]1CCCN1C(=O)[C@H](CCCCN)NC(=O)C[C@@H]1O[C@@H](C)[C@@H](O)[C@@H](O)[C@@H]1O)[C@@H](C)CC)NC(=O)[C@@H](NC(=O)[C@H](CCCCN)NC(=O)[C@H](Cc1ccccc1)NC(=O)[C@H](CCCCNC(=O)[C@H](CC(C)C)NC(=O)[C@@H]1CCCN1C(=O)[C@H](CCCCN)NC(=O)C[C@@H]1O[C@@H](C)[C@@H](O)[C@@H](O)[C@@H]1O)NC(=O)[C@H](CC(C)C)NC(=O)[C@@H]1CCCN1C(=O)[C@H](CCCCN)NC(=O)C[C@@H]1O[C@@H](C)[C@@H](O)[C@@H](O)[C@@H]1O)[C@@H](C)CC)C(N)=O — MBIC (biofilm formation, WST-8 staining; PAO1; added: tobramycin 0.1 µM): 5 µM
CC(C)C[C@@H]1NC(=O)[C@H](CCN)NC(=O)CSC[C@@H]2NC(=O)[C@H](CC(C)C)NC(=O)[C@H](CC(C)C)NC(=O)[C@H](CCN)NC(=O)[C@H](CCCCNC(=O)[C@H](CCN)NC1=O)NC(=O)[C@H](CCN)NC(=O)[C@H](CC(C)C)NC(=O)[C@H](CCN)NC(=O)CSC[C@@H](C(=O)N[C@@H](CCN)C(N)=O)NC(=O)[C@H](CC(C)C)NC(=O)[C@H](CC(C)C)NC(=O)[C@H](CC(C)C)NC2=O — minimal biofilm inhibitory concentration (PAO1; 24 to 25 h): > 32 µg/mL
